Assay results of several laboratories.
A part holds a random share of what one study measured. Positions count from the first letter of the parent shown.
UniProt Q9Y385, sequence (whole entry, looked up): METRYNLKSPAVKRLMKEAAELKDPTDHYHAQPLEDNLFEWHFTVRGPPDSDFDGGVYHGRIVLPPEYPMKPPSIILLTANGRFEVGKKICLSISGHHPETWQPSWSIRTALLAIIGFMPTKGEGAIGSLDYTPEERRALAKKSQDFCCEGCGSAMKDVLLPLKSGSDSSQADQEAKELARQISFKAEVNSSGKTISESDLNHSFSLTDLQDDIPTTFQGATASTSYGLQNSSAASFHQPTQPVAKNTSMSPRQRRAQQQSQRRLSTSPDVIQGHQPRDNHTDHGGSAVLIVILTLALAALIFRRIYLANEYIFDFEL
UniProt Q712K3, sequence (whole entry, looked up): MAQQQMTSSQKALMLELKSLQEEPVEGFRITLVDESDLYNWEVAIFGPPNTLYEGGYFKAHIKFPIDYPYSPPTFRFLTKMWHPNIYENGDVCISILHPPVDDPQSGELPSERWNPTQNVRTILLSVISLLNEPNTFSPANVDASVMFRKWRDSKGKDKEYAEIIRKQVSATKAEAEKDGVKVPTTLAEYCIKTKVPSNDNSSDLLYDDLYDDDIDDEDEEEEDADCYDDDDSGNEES
UniProt P51668, sequence (whole entry, looked up): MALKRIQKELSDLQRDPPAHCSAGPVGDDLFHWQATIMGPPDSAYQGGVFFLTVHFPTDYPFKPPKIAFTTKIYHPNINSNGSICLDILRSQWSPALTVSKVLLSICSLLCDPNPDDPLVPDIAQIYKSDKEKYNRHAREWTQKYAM
UniProt Q9C0C9, sequence (whole entry, looked up): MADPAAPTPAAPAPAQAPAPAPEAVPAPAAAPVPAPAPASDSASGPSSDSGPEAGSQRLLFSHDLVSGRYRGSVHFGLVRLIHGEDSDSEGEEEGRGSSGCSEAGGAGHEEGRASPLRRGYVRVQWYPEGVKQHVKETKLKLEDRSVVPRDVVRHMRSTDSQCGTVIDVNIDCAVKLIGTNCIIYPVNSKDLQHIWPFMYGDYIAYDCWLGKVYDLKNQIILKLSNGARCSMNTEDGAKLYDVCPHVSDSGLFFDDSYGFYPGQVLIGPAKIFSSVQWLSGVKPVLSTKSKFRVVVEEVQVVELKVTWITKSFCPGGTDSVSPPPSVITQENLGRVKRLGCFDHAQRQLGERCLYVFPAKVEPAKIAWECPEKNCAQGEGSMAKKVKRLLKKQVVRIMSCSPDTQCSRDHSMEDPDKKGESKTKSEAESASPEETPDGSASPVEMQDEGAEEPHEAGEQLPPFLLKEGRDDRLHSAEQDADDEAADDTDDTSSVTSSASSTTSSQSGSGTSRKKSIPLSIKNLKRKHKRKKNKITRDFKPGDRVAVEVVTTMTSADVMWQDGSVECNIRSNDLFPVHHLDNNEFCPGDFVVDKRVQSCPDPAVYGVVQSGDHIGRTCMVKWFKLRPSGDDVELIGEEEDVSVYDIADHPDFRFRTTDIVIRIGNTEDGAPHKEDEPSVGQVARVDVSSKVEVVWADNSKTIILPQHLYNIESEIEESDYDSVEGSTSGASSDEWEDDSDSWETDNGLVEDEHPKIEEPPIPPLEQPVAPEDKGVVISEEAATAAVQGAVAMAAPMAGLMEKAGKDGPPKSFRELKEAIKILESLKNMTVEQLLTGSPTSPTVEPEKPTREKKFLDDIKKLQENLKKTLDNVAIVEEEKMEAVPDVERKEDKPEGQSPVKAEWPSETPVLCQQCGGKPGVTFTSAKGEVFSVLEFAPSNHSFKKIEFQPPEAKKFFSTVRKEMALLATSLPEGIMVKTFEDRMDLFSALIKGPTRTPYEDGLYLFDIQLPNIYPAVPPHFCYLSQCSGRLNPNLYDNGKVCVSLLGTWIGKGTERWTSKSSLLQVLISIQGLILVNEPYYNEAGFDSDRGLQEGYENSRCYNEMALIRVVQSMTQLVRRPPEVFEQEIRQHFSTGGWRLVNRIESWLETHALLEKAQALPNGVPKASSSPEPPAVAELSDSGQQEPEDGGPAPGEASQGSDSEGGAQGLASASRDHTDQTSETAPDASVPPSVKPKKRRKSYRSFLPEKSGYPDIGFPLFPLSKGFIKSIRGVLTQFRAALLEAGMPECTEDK
UniProt P61081, sequence (whole entry, looked up): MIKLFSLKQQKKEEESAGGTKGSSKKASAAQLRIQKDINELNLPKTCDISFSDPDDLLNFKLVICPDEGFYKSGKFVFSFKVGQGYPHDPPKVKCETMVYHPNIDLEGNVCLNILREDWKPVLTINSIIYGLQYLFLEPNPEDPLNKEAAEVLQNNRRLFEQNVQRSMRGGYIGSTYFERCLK
UniProt Q8N2K1, sequence (whole entry, looked up): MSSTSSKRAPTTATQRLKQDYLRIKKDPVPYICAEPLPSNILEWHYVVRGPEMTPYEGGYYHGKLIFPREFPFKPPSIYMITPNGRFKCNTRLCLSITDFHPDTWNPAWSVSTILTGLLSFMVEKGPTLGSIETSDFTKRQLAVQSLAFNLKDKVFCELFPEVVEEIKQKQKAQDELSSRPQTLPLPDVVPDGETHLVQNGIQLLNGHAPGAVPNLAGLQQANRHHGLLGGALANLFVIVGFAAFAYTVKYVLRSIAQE

Sample 1
Target: ABI1, truncated, D143A, DHFR fusion (Arabidopsis thaliana)
Technique: DHFR PCA, deep sequencing
Medium: yeast
Notes: methotrexate growth selection, single substitutions
Added: (+)-ABA 200 µM
Baseline: wild-type fitted maximum
Reading: higher = stronger binding
Parent: PYL1, truncated, DHFR fusion (Arabidopsis thaliana); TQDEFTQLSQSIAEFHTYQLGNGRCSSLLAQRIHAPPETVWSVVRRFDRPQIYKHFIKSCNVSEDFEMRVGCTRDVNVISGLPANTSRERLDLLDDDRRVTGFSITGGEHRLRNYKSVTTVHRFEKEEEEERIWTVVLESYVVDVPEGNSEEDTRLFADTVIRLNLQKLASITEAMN; partner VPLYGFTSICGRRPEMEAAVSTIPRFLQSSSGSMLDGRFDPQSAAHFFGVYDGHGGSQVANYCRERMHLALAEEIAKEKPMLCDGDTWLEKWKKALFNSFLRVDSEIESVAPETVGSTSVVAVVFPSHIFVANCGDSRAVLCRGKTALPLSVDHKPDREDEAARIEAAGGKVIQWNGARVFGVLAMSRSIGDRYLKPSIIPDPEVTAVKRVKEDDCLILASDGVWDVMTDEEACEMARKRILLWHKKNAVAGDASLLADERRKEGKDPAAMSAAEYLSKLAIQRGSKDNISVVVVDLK
`Q10P` — result for “relative binding score”: 94.5%.
`G23V` — result for “relative binding score”: 69.8%.
`K54E` — result for “relative binding score”: -0.516%.
For `T39C`, “relative binding score” read 91.8%.
`Q51R` — result for “relative binding score”: 53.1%.
`G107N`: “relative binding score” 84.9%.
`P36A`: “relative binding score” 89.2%.
`K116R`: “relative binding score” 107%.
Under “relative binding score”, `R69K` is recorded as 104%.
Under “relative binding score”, `R113Q` is recorded as 108%.
Under “relative binding score”, `F157C` is recorded as 8.09%.
`V137D`: “relative binding score” 8.5%.
For `V161L`, “relative binding score” read 89.3%.
`P37V`: “relative binding score” 99.6%.
`N165Q` — result for “relative binding score”: 21.2%.
For `T119H`, “relative binding score” read 16%.
`H110Q`: “relative binding score” 24%.
For `P37W`, “relative binding score” read 65.4%.
`V100T`: “relative binding score” 81.9%.
Under “relative binding score”, `D75K` is recorded as 104%.
`G108I` — result for “relative binding score”: 6.89%.
`V100F`: “relative binding score” 60.7%.
For `Y53Q`, “relative binding score” read 31.8%.

Sample 2
Target: CCNE1, cyclin fold, Cln2 fusion (human)
Technique: yeast growth competition, sequencing
Medium: yeast
Notes: strong parent motif
Baseline: not given
Reading: higher = stronger binding
Parent: PKMYT1 docking peptide (human); SFEPRNLLSLFED
`L7D` — result for “normalised enrichment score”: 0.689.
`R5Y` — result for “normalised enrichment score”: 0.632.
`D13W` — result for “normalised enrichment score”: 0.983.
`F11I` — result for “normalised enrichment score”: 0.572.
`F2E` — result for “normalised enrichment score”: -0.031.
`L8D`: “normalised enrichment score” -0.564.
`F11L`: “normalised enrichment score” 1.14.
Under “normalised enrichment score”, `D13T` is recorded as 1.79.
`S9P`: “normalised enrichment score” 2.42.
`F11W` — result for “normalised enrichment score”: 1.83.
`E12W`: “normalised enrichment score” 1.17.
For `R5K`, “normalised enrichment score” read 2.12.
`N6Y`: “normalised enrichment score” 0.56.
`D13K` — result for “normalised enrichment score”: 1.46.
For `L7F`, “normalised enrichment score” read 1.22.
Under “normalised enrichment score”, `R5W` is recorded as 1.12.
Under “normalised enrichment score”, `P4D` is recorded as 0.208.
`R5L` — result for “normalised enrichment score”: 1.34.
`F11Y`: “normalised enrichment score” 0.907.
Under “normalised enrichment score”, `L7E` is recorded as -0.44.
For `L10T`, “normalised enrichment score” read 1.45.
Under “normalised enrichment score”, `D13A` is recorded as 2.45.
`S9K` — result for “normalised enrichment score”: 1.51.

Sample 3
Target: RING finger protein unkempt homolog, zinc fingers 1-6, GST-SBP tag (UNK, Homo sapiens, UniProt Q9C0B0, residues 30-357)
UniProt Q9C0B0, sequence (30-357, looked up): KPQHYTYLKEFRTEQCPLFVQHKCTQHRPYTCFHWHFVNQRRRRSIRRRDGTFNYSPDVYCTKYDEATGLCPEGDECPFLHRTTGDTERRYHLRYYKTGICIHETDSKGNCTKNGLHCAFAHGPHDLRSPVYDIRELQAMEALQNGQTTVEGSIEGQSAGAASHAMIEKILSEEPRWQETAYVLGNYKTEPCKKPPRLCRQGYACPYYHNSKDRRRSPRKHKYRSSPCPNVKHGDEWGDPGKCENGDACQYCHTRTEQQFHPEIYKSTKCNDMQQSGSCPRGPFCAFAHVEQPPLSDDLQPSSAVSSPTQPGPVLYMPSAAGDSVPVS
Technique: RNA Bind-n-Seq
Molecule type: RNA
Medium: in vitro
Tested at: not given
Notes: RNA with constant flanks, human-mouse chimeric sites, ends assumed
Baseline: input RNA pool
Reading: higher = stronger binding
Shared flanks, not repeated: GGGAGUUCUACAGUCCGACGAUC … CAACAGAGGAUUGAGCAUCA
`AGAAAGCAAAACUUGGAACGAUUUAAGAAAGGAGACGUAAGAUUCUUGAUUUGCACAGAUGUAGCUGCUAGAGGGAUUGAUAUCCAUGGUGUUCCUUAUGUUAUAAACGUCACCCUGCCU` gave a bound/input enrichment of 0.29 ratio.
`GGCCUGGGACCGUCCUGGGCUAGUACAAAUAGCGGCAGUGGAGGCUCAGAGGAAAGUUUUGUUAGUGGAGGCAGUGGAGAGGUCGUCCAUGUACGGUCCUUUACUCGAUAGAUGUGUUCU` has a bound/input enrichment of 0.639 ratio.
`UGUGCAUUAUGAUGCUUAGAUGGUUUUUGCAAAAGCAGAAAUCGCUGCAAGGUAAUCCUAAUAGAGAAAAGUGGUAUUUUAAACCUUUGAAAUAAAUGGAUGUAACUGUACCUUGGUACA` gave a bound/input enrichment of 1.53 ratio.
For `AACAGAUUGUCUUUAAGGUCAACGUAGGAGAAUGCUGGGGUGAUCAUUGUUGCCCAUGUGCCUUCUGACUGAGCUUUAAUGCUGUUCCAUGUUACAUCUUUCCUUCACUCCAGAAUUGUU`, the bound/input enrichment was 0.119 ratio.
`AAAGUGGACUAUGGCGAGUACAUGGAUAAAAACAAUGUGAGGCGACAAGCAACAACAAUCAUAGCUGAUAAUAUUAUAUUUCUGAGUGACCAGACAAAAGAAAAGGCAUAGAACGGAUGA` gave a bound/input enrichment of 4.56 ratio.
The bound/input enrichment of `CUGUGUGUGCUGAAUAAAUGGCUUGUAAGAACUGUCCUCCAAGCUGUAACCCAUGCUGUUAUUAUAGUUGCUGCAAAAUGUUCUUCCUAUUGAUGUUUUUAUUUGUUAACUGAAGGUCUC` is reported as 0.622 ratio.
The bound/input enrichment of `AAAGAACUACUGAGGCAAGGCAGCAAAUUUAGGAGAGACAUUUCAACAAUAUUGAUAGAGUUAGGAUUCCAAAUUAAAAAGAAAACUAAAAGAUUGUACAUCAACAAAGCCAAUGUGUGG` is reported as 7.62 ratio.
`UAUAAUAAUCAUGAAAUUCGUUCCGGGAAACAUAUUGGUGUCUGCAUCUCAGUUGCCAACAAUAGGCUUUUUGUGGGCUCUAUUCCUAAGAGUAAAACCAAGGAGCAGAUUCUUGAGGAA` gave a bound/input enrichment of 0.982 ratio.

Sample 4
Sequence: B1 (ZNRF3 RING domain)
Technique: yeast two-hybrid
Medium: yeast
Notes: mostly zero background
Baseline: not given
Reading: higher = stronger interaction
B1: ZNRF3 RING domain (UniProt Q9ULT6); chain DTLSSSSTSDCAICLEKYIDGEELRVIPCTHRFHRKCVDPWLLQHHTCPHCRHNIIEQKGNP
The “lacZ reporter activity” was 0 (UBE2O UBC core domain (UniProt Q9C0C9)).
For UBE2M UBC core domain (UniProt P61081): “lacZ reporter activity” read 0.
The “lacZ reporter activity” was 2300 (UBE2D1 UBC core domain (UniProt P51668)).
UBE2J2 UBC core domain (UniProt Q8N2K1) — “lacZ reporter activity”: 0.
For UBE2I UBC core domain (UniProt P63279): “lacZ reporter activity” read 0.
The “lacZ reporter activity” was 0 (BIRC6 UBC core domain (UniProt Q9NR09)).
UBE2J1 UBC core domain (UniProt Q9Y385) — “lacZ reporter activity”: 0.
It gave 0 for “lacZ reporter activity” (UBE2R2 UBC core domain (UniProt Q712K3)).

Repeated from above (sample 1):
`Q51R` — result for “relative binding score”: 53.1%.
`G107N`: “relative binding score” 84.9%.
`P36A`: “relative binding score” 89.2%.
`K116R`: “relative binding score” 107%.
Under “relative binding score”, `R69K` is recorded as 104%.
Under “relative binding score”, `R113Q` is recorded as 108%.
Under “relative binding score”, `F157C` is recorded as 8.09%.
`V137D`: “relative binding score” 8.5%.
For `V161L`, “relative binding score” read 89.3%.
